# Published values pooled from the literature.
# Sequences of proteins named here, by UniProt entry; tags and fusion partners are left off. A change or cut given only in a name is not applied to a line headed by its entry.
# UniProt P14902, whole entry: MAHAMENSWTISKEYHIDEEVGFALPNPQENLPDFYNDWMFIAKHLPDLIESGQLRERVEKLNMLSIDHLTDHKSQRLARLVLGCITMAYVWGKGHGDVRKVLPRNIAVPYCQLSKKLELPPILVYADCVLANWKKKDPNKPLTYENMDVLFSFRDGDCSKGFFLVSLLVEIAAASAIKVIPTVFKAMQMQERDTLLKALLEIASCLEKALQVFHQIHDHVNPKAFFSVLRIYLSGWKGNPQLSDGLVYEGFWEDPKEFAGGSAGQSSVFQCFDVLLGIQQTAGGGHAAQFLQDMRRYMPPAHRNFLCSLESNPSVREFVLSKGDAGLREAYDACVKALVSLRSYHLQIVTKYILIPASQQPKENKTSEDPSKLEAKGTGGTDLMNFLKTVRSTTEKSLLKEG
# UniProt P05067, whole entry, looked up: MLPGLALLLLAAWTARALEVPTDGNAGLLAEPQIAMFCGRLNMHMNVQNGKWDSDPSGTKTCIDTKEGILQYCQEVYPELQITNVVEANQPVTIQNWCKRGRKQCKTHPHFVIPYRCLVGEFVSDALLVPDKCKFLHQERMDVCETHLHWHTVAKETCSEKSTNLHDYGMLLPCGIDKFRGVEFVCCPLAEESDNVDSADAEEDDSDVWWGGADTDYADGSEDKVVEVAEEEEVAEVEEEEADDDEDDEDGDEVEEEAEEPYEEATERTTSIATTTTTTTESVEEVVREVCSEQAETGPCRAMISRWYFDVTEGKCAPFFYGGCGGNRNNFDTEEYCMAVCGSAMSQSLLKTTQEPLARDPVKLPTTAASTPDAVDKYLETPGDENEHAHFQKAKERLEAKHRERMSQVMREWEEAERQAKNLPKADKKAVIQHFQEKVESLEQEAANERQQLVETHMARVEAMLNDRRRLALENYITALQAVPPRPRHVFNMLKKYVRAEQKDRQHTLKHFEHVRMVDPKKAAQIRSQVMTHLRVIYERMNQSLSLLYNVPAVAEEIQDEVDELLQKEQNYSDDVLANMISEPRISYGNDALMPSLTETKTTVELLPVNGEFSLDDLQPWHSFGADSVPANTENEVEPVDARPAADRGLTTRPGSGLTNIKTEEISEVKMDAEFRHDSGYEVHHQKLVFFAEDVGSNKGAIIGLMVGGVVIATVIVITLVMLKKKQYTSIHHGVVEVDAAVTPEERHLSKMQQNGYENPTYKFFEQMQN
# UniProt P26038, whole entry, looked up: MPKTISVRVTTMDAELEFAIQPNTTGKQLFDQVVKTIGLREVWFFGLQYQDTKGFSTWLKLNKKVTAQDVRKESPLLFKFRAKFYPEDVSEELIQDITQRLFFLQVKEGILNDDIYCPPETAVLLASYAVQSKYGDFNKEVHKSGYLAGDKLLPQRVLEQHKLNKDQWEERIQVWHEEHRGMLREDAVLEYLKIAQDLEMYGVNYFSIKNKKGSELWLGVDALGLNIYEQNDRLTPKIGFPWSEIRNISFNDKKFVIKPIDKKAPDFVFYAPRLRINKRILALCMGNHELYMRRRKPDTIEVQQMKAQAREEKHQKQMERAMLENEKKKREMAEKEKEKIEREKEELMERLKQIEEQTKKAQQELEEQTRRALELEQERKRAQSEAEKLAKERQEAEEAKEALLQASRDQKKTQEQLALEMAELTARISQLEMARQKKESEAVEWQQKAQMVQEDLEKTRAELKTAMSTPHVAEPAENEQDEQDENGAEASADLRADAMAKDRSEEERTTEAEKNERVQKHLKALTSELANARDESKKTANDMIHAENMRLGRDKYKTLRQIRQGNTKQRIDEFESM
# UniProt P03372, whole entry: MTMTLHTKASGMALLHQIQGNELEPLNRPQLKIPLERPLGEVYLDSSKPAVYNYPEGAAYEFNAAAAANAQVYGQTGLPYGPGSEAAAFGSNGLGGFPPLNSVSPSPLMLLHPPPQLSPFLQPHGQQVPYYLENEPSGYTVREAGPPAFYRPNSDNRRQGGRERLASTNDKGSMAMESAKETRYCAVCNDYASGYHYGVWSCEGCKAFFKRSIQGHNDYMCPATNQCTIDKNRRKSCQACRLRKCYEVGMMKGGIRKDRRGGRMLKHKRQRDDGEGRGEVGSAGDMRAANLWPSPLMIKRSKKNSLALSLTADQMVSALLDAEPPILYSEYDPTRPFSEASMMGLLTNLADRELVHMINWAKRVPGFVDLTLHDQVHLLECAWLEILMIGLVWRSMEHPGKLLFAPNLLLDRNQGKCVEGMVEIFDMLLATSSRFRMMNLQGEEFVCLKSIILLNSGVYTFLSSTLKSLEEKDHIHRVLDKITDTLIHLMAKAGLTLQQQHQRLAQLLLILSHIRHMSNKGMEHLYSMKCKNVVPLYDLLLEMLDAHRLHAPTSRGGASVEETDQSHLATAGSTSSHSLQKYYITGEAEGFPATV
# UniProt P09874, whole entry: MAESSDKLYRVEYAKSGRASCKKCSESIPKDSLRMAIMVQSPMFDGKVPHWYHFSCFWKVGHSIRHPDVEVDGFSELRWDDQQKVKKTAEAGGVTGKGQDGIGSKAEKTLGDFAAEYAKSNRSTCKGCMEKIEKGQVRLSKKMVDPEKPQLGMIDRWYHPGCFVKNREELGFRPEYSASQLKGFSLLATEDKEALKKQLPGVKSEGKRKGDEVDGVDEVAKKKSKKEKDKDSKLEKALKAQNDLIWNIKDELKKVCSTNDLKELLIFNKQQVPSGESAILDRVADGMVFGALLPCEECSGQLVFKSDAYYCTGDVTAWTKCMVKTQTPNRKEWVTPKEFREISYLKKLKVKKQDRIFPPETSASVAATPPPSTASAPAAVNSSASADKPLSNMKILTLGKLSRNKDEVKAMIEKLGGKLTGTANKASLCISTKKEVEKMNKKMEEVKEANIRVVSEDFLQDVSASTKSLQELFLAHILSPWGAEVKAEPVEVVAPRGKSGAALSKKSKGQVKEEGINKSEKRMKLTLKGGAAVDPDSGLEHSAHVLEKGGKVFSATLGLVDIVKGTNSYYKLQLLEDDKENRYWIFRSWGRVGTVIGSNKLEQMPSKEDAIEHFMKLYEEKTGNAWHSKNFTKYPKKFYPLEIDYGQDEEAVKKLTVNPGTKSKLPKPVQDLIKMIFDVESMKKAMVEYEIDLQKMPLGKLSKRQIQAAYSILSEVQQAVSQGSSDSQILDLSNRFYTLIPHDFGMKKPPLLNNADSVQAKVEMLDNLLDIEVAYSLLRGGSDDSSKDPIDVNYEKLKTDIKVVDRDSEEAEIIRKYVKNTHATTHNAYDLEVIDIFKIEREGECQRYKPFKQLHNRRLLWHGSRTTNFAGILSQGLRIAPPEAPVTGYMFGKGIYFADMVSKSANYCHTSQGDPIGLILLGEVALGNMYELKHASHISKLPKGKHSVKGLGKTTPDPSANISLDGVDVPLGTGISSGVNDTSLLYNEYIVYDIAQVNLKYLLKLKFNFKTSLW
# UniProt Q07440, whole entry P104K/C113S, looked up: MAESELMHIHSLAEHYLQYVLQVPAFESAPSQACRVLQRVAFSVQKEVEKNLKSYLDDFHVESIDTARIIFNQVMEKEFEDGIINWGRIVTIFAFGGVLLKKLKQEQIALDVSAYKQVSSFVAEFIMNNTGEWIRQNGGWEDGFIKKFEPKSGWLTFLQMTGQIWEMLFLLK
# UniProt O43353, whole entry: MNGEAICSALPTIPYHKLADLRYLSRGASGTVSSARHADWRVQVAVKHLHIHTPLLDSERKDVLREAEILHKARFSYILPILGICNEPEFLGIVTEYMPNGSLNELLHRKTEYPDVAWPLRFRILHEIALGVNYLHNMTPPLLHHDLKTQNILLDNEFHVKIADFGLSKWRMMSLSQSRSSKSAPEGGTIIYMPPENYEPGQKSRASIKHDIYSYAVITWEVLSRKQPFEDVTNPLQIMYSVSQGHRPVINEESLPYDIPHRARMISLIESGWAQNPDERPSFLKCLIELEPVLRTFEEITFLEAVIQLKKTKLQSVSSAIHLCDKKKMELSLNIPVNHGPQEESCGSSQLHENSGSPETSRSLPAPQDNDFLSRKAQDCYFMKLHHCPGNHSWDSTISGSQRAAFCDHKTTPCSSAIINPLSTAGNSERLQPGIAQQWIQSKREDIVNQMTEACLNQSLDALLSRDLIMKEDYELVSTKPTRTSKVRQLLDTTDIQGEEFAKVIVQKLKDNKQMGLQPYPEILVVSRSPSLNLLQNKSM
# UniProt B2RXH2, whole entry: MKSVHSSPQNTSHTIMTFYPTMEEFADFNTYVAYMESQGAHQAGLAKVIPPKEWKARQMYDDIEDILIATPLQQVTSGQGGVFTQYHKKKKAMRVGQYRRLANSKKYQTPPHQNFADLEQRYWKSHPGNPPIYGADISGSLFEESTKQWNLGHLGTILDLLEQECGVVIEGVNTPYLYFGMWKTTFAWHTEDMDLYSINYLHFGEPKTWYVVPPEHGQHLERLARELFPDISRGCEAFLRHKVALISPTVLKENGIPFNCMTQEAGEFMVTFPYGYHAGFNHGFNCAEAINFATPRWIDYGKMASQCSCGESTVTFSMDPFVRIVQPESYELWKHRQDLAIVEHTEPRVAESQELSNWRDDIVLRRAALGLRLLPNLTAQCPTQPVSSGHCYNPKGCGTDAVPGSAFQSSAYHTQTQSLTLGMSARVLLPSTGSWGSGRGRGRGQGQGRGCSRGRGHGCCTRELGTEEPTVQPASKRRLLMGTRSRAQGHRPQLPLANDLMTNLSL
# UniProt P07949, whole entry, looked up, stated change not applied: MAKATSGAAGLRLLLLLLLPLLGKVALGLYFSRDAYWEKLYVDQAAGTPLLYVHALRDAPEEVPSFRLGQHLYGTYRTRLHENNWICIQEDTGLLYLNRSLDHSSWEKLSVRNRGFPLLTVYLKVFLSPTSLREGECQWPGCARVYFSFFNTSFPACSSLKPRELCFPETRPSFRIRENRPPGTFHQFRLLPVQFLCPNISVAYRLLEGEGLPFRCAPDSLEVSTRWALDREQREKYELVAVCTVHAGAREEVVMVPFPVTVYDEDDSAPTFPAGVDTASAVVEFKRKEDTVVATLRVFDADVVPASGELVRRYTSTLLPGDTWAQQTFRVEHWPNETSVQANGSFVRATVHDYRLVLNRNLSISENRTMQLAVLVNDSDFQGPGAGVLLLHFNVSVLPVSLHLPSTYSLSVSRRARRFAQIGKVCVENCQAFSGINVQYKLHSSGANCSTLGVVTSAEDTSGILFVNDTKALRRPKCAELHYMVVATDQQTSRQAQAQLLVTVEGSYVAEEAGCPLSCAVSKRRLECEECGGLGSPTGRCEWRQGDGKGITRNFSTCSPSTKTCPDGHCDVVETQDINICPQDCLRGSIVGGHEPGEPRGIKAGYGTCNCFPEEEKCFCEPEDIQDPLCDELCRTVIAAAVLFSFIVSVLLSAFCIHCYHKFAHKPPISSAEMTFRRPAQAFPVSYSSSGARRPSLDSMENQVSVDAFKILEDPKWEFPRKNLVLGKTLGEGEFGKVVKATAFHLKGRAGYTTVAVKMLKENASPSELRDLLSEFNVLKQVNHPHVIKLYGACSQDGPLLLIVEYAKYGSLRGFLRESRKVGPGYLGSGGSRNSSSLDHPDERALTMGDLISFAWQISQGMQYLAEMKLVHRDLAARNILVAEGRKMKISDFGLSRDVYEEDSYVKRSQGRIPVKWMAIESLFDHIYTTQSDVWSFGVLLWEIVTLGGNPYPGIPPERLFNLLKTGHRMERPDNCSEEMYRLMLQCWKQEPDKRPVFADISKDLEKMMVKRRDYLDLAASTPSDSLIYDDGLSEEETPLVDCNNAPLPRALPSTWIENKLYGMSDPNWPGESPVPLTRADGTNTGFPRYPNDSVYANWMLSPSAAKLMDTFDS
# UniProt P56658, whole entry: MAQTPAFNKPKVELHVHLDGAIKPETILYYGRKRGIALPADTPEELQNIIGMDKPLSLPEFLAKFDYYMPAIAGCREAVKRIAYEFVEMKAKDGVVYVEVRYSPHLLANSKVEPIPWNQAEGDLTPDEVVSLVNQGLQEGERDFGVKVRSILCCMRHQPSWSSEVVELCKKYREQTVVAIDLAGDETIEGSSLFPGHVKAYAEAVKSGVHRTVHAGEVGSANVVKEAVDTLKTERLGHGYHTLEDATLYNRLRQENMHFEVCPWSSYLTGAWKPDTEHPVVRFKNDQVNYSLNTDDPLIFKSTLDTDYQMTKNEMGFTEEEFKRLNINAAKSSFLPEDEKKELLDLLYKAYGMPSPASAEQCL
# UniProt P40306, whole entry, looked up: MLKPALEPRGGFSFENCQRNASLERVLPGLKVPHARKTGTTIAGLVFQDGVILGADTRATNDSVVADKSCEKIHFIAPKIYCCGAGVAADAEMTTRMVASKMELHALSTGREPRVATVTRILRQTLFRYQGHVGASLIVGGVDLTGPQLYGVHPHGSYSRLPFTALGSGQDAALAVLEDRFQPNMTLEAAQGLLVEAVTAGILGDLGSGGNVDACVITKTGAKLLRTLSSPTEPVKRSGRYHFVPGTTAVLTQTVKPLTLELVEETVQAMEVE
# UniProt P49720, whole entry, looked up: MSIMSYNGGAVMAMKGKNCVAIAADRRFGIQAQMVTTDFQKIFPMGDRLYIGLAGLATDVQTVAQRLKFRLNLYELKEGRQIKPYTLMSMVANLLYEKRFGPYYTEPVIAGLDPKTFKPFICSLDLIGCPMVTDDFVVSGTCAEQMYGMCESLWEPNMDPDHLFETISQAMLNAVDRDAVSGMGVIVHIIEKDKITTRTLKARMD
# Protocols differ between the studies behind these lines. Numbers after ± are the reported error.
# CDK2 part with cyclin A: Cyclin-dependent kinase 2, part with cyclin A (CDK2, Homo sapiens, UniProt P24941)
# IDO1: Indoleamine 2,3-dioxygenase 1 (IDO1, Homo sapiens, UniProt P14902)
# LATS1: Serine/threonine-protein kinase LATS1 (LATS1, Homo sapiens, UniProt O95835)
# APP amyloid-beta peptide: Amyloid-beta precursor protein, amyloid-beta peptide (APP, Homo sapiens, UniProt P05067)
# VHL with elongin B, C: von Hippel-Lindau disease tumor suppressor, with elongin B, C (VHL, Homo sapiens, UniProt P40337)
# Moesin with CD44: Moesin, with CD44 (Homo sapiens, UniProt P26038)
# ESR1: Estrogen receptor (ESR1, Homo sapiens, UniProt P03372)
# Tubulin alpha/beta heterodimer: Tubulin alpha/beta heterodimer (Leishmania infantum, UniProt A0A381MCS3+A4HTR0)
Structure (SMILES),target,assay,system,setting,IC50
O=C1OC2CC1N(C(=O)c1cc(Cc3n[nH]c(=O)c4ccccc34)ccc1F)C2 (stereo not drawn),"Poly [ADP-ribose] polymerase 1 (PARP1, Homo sapiens, UniProt P09874)",enzyme activity,,,< 1 µM
CN1CC[C@H](c2c(O)cc(O)c3c(=O)cc(-c4cnccc4Cl)oc23)[C@H](O)C1,CDK2 part with cyclin A,"enzyme activity, inhibitor",,"with cyclin A, together with: histone H1 substrate",0.314 µM
O=C(Nc1ccc(Cl)cc1)C(NS(=O)(=O)c1cccs1)c1ccc(F)cc1 (stereo not drawn),"Uracil nucleotide/cysteinyl leukotriene receptor, long isoform (GPR17, Homo sapiens, UniProt Q13304)","calcium mobilization, antagonist",1321-N1,,12.2 ± 0.79 µM
CCOC(=O)/C=C/CNCCCCN1c2ccccc2CCc2ccc(Cl)cc21,"E3 ubiquitin-protein ligase NEDD4 (Homo sapiens, UniProt P46934)","ubiquitination, inhibitor, Ub-TR-FRET",,"1 h preincubation, full-length protein",1.8 ± 0.182 µM
Cc1ccc(N=Nc2c(O)c(S(=O)(=O)O)cc3cc(S(=O)(=O)O)ccc23)c(C)c1,"Bcl-2-related protein A1 (Mus musculus, UniProt Q07440, C113S/P104K)","binding, fluorescence polarization",,together with: FITC-Noxa peptide,> 400 µM
COc1ccc2[nH]cc(/C=C/c3c[nH]c4ccccc34)c2c1,IDO1,"enzyme activity, inhibitor",,,5.5 µM
CC(=O)N1CC=C(c2cc3c(Nc4cc5ncsc5cc4F)ncnc3s2)CC1,"Receptor-interacting serine/threonine-protein kinase 2 (RIPK2, Homo sapiens, UniProt O43353)","kinase activity, inhibitor",,,0.011 µM
CC(C)N1CCN(CCNC2CCN(c3cccc(-c4cc5cc([N+](=O)[O-])ccc5[nH]4)c3)CC2)CC1,"Transitional endoplasmic reticulum ATPase (VCP, Homo sapiens, UniProt P55072)","ATPase activity, inhibitor, ADP-Glo",,together with: ATP 100 µM,0.047 µM
Nc1cc(-c2ccc(C3(c4ccc(Cl)cc4)CCNCC3)cc2)ccn1,LATS1,"kinase activity, inhibitor, radiometric HotSpot",,together with: ATP 10 µM,0.198 µM
C[C@H](NC(=O)c1cc(C(=O)O)cc([C@H]2CCN[C@@H]2C(=O)O)c1)C(=O)O,"Glutamate receptor ionotropic, NMDA 2B, with GluN1 (Grin2b, Rattus norvegicus, UniProt Q00960)","ion current, antagonist, two-electrode voltage clamp",Xenopus oocytes,"GluN1/GluN2B, together with: glycine 100 µM and glutamate 1 µM",7.17 ± 0.17 µM
COc1ccc(CNc2c(C(=O)O)ccnc2C(=O)O)cc1,"Lysine-specific demethylase 4E (KDM4E, Homo sapiens, UniProt B2RXH2)","inhibitor, FDH-coupled spectrophotometry, measured: formaldehyde",,,41 µM
CN1CCN(Cc2ccc(NC(=O)c3cncc(C#Cc4cncc5ncccc45)c3)cc2C(F)(F)F)CC1,"Kinesin-1 heavy chain/ Tyrosine-protein kinase receptor RET (RET/KIF5B, Homo sapiens, UniProt P07949+P33176, G810V)","cell viability, inhibitor, CellTiter-Glo",Ba/F3 KIF5B-RET G810V,,0.00479 ± 0.00026 µM
COc1ccc2[nH]cc(/C=C/c3ccc(OS(C)(=O)=O)cc3)c2c1,IDO1,"enzyme activity, inhibitor",,,> 100 µM
COc1cc2c(Nc3c(Cl)ccc4c3OCO4)ncnc2cc1OCCCN1CCN(C(=O)CCCC(=O)NCc2ccc(COc3nc(N)nc4[nH]cnc34)cc2)CC1,"Proto-oncogene tyrosine-protein kinase Src, SH3-SH2-kinase domains (SRC, Gallus gallus, UniProt P00523)","enzyme activity, inhibitor",,"unphosphorylated form, enzyme 10 nM",0.19 ± 0.02 µM
Oc1ccccc1C1=NCCCO1,"Adenosine deaminase (ADA, Bos taurus, UniProt P56658)",enzyme activity,,25 °C,> 700 µM
COC(=O)/C(=C/c1c[nH]c2ccc(F)cc12)c1ccc(F)cc1,APP amyloid-beta peptide,"Aβ42 oligomerisation, ELISA",,,> 20 µM
COc1cc(Cl)ccc1NC(=O)C(C(F)(F)F)C(F)(F)F,"Chymotrypsinogen A (Bos taurus, UniProt P00766)","inhibitor, fluorogenic peptide substrate",,,2.4 µM
CN1CC[C@H](c2c(O)cc(O)c3c(=O)cc(-c4cccnc4)oc23)[C@H](O)C1,CDK2 part with cyclin A,"enzyme activity, inhibitor",,"with cyclin A, together with: histone H1 substrate",0.247 µM
COc1ccc(C(=O)N2C[C@H](O)C[C@H]2C(=O)NCc2ccc(Cl)cc2)cc1OC,"VHL with elongin B, C","binding, fluorescence polarization",,"10% DMSO, together with: FAM-HIF1α peptide tracer",24 ± 2 µM
O=C(Nc1ccc(-c2nc3ccc(NC(=O)C4CCOCC4)cc3s2)cc1)C1CCOCC1,Moesin with CD44,"MSN-CD44 interaction, inhibitor, TR-FRET",,together with: CD44,> 20 µM
COC(=O)/C(=C/c1c[nH]c2ccc(OC)cc12)c1ccc(NS(C)(=O)=O)cc1,APP amyloid-beta peptide,"Aβ42 oligomerisation, ELISA",,,> 20 µM
Clc1ccc(C2(c3ccc(-c4ccnc5ncccc45)cc3)CCNCC2)cc1,LATS1,"kinase activity, inhibitor, radiometric HotSpot",,together with: ATP 10 µM,> 10 µM
CCOc1ccc2cc(-c3nn(CC4CCNCC4)c4ncnc(N)c34)ccc2n1,"Tyrosine-protein kinase ABL1 (ABL1, Homo sapiens, UniProt P00519)","kinase activity, inhibitor, radiometric",,highest tested 10 µM,> 10 µM
O=C(CCCCCn1c(=S)[nH]c2ccccc2c1=O)N1CCN(c2cccc([N+](=O)[O-])c2)CC1,ESR1,"reporter gene, antagonist",HEC-1 cells transfected with ERα,together with: estradiol 1 nM,6.6 µM
Fc1cccc(/C=C/c2c[nH]c3ccc(F)cc23)c1,IDO1,"enzyme activity, inhibitor",,,4.9 µM
COC(=O)N1CCN(CCCOc2cccc(NC(=O)NC34CC5CC(CC(C5)C3)C4)c2)CC1,"Bifunctional epoxide hydrolase 2 (EPHX2, Homo sapiens, UniProt P34913)","enzyme activity, inhibitor",,"pH 7.0, 30 °C, together with: CMNPC 5 µM",0.0011 µM
COc1cc([C@@H]2c3cc4c(cc3C=C(C=O)[C@H]2C(=O)OCCCBr)OCO4)cc(OC)c1OC,Tubulin alpha/beta heterodimer,"tubulin polymerization, inhibitor",,"37 °C, together with: tubulin 1.2 mg/mL",1.7 ± 0.1 µM
O=C(Nc1ccc(-c2nc3ccccc3[nH]2)cc1)c1ccccc1Br,Moesin with CD44,"MSN-CD44 interaction, inhibitor, TR-FRET",,together with: CD44,> 100 µM
O=C(NCc1ccc(-c2cnco2)cc1)[C@@H]1C[C@@H](O)CN1C(=O)c1cccc(Br)c1,"VHL with elongin B, C","binding, fluorescence polarization",,"1% DMSO, together with: FAM-HIF1α peptide tracer",31.5 ± 1.9 µM
O=C(OC(C(F)(F)F)C(F)(F)F)N1CCC(OC(c2ccc(F)cc2)c2ccc(F)cc2)CC1,"Monoacylglycerol lipase ABHD6 (ABHD6, Homo sapiens, UniProt Q9BV23)","inhibitor, fluorescence",,,1.34 ± 0.0156 µM
CC(C)CNC(=O)CSc1nc2ccc(NC(=O)CSc3ccccc3C(C)C)cc2s1,ESR1,"reporter gene, antagonist",HEC-1 transfected ERα luciferase reporter,,> 50 µM
COc1ccc(C(=O)Nc2ccc(-c3nc4ccccc4[nH]3)cc2)cc1,"Tyrosine-protein kinase SYK, with FCER1G (SYK, Homo sapiens, UniProt P43405)","protein binding, inhibitor, TR-FRET",,,14 µM
O=C(CCl)N1CCN(c2cc(N3CCCC3)nc(N3CCCC3)n2)CC1,"Caspase-1 (CASP1, Homo sapiens, UniProt P29466)",inhibitor,,15 min preincubation,> 0.5 µM
Cc1ccc(NC(=O)c2ccc(CN3CCC(N(C)C)C3)c(C(F)(F)F)c2)cc1N1Cc2cnc(Nc3cnn(C)c3)nc2N(C)C1=O (stereo not drawn),"Fibroblast growth factor receptor 4 (FGFR4, Homo sapiens, UniProt P22455)","enzyme activity, inhibitor, radiometric kinase",,,< 0.001 µM
O=C(O)CNC(=O)c1cc(C(=O)O)cc([C@H]2CCN[C@@H]2C(=O)O)c1,"Glutamate receptor ionotropic, NMDA 2C, with GluN1 (Rattus norvegicus, UniProt Q00961)","ion current, antagonist, two-electrode voltage clamp",Xenopus oocytes,"GluN1/GluN2C, together with: glycine 100 µM and glutamate 1 µM",9.94 ± 0.52 µM
COc1cc(C(=O)N2CCC(N3CCN(C)CC3)CC2)ccc1Nc1ncc2c(n1)N(C1CCCC1)c1ccccc1C(=O)N2C,"Leucine-rich repeat serine/threonine-protein kinase 2 (LRRK2, Homo sapiens, UniProt Q5S007)","kinase activity, Adapta",,,0.095 ± 0.01 µM
NCCOCCOCCNC(=O)[C@@H]1CCCCNC(=O)[C@H](Cc2ccc([N+](=O)[O-])cc2)NC(=O)[C@H](CC2CCCCC2)NC(=O)C[C@H](O)[C@H](CC2CCCCC2)NC(=O)/C=C\C(=O)N1,"MAP kinase-activated protein kinase 2 (MAPKAPK2, Homo sapiens, UniProt P49137)","inhibitor, Z'-LYTE",,,6.8 µM
COc1cc([C@@H]2c3cc4c(cc3C=C(C=O)[C@H]2C(=O)OCCCn2cnc3c(Cl)ncnc32)OCO4)cc(OC)c1OC,Tubulin alpha/beta heterodimer,"tubulin polymerization, inhibitor",,"37 °C, together with: tubulin 1.2 mg/mL",> 20 µM
O=C(c1c(F)ccc(NS(=O)(=O)Cc2ccccc2)c1F)c1c[nH]c2ncc(-c3cnc(C4CC4)nc3)cc12,"Dual specificity mitogen-activated protein kinase kinase 4 (MAP2K4, Homo sapiens, UniProt P45985)","kinase activity, inhibitor",,,0.2 µM
CNCCN(C)c1ccc(Nc2cc(NC3CC3)n3ncc(C#N)c3n2)cc1NC(C)=O,"Casein kinase II subunit alpha' (CSNK2A2, Homo sapiens, UniProt P19784)","target engagement, NanoBRET",HEK293,,0.0026 µM
COc1ccc2nc3ccc(C)cc3c(SCCCN)c2c1,"Dual specificity tyrosine-phosphorylation-regulated kinase 2 (DYRK2, Homo sapiens, UniProt Q92630)",inhibitor,,together with: Woodtide peptide,0.43 µM
CN1CCC[C@@H]1C(=O)N[C@@H](Cc1ccc(-c2ccccn2)cc1)B(O)O,"Proteasome subunit beta type-10 / Proteasome subunit beta type-3 (Homo sapiens, UniProt P40306+P49720)","β2i enzyme activity, inhibitor",,together with: Ac-KQL-AMC,> 10 µM
Cc1cc(N2CCCCC2)nc2ccc(NC(=O)CCC(=O)N3CCN(c4cccc(Cl)c4)CC3)cc12,"Cruzipain (Trypanosoma cruzi, UniProt P25779)","enzyme activity, inhibitor, fluorogenic substrate cleavage",,"0.01% Triton X-100, together with: Z-FR-AMC",25 µM
c1cc(-c2nc(-c3ccc4c(c3)OCCCO4)cs2)ccc1-c1csnn1,"ALK tyrosine kinase receptor (ALK, Homo sapiens, UniProt Q9UM73)",ELISA,,,31 µM
CSc1cc(NC(=O)c2ccccn2)ccc1Cl,"Metabotropic glutamate receptor 6 (Homo sapiens, UniProt O15303)",antagonist,,,> 30 µM
